{"data": "Measurements collected from several papers", "note": "Each numbered part is a random draw from the data of one study; scales do not carry over between parts. Substitutions count along the parent as printed."}
{"data": "Series 1", "target": "TAR DNA-binding protein 43, full length, His tag (TARDBP, Homo sapiens, UniProt Q13148, residues 1-414)", "technique": "RNA Bind-n-Seq", "form": "RNA", "medium": "in vitro", "concentration": "20 nM", "notes": "6-mer, flanks averaged, single round", "with": "150 mM KCl", "relative to": "input library", "direction": "higher = stronger binding"}
{"Strand": "UUGUGG", "6-mer enrichment (R)": 1.41}
{"Strand": "AACAAC", "6-mer enrichment (R)": 0.815}
{"Strand": "GCUACU", "6-mer enrichment (R)": 0.642}
{"Strand": "AAUCCC", "6-mer enrichment (R)": 0.597}
{"Strand": "CGGCAU", "6-mer enrichment (R)": 0.833}
{"Strand": "UCCCGG", "6-mer enrichment (R)": 0.816}
{"Strand": "ACACGC", "6-mer enrichment (R)": 0.715}
{"Strand": "CGCGCA", "6-mer enrichment (R)": 0.896}
{"Strand": "CUCAGG", "6-mer enrichment (R)": 0.962}
{"Strand": "UAUCGA", "6-mer enrichment (R)": 0.595}
{"Strand": "UUGGAC", "6-mer enrichment (R)": 0.775}
{"Strand": "GUUAUC", "6-mer enrichment (R)": 0.589}
{"Strand": "GAAUCA", "6-mer enrichment (R)": 0.671}
{"Strand": "GAACAU", "6-mer enrichment (R)": 0.691}
{"Strand": "GGACAC", "6-mer enrichment (R)": 1.09}
{"data": "Series 2", "target": "Cellular tumor antigen p53, full length (TP53, Homo sapiens, UniProt P04637, residues 1-393)", "technique": "protein-binding microarray", "form": "hairpin DNA", "medium": "in vitro", "concentration": "not given", "notes": "whole hairpin DNA, median over replicate spots", "relative to": "not given", "direction": "higher = stronger binding"}
{"Strand": "CCACACCTGGTGGCATGCCTTCCTAGGCATGCCACCAGGTGTGGACACTC (5mC at 7)", "median fluorescence [a.u.]": 6750}
{"Strand": "CGGACATGCCCGGCCATGTCTCCTGACATGGCCGGGCATGTCCGACACTC", "median fluorescence [a.u.]": 9780}
{"Strand": "CCATACGTGGTGGCATGCCTTCCTAGGCATGCCACCACGTATGGACACTC", "median fluorescence [a.u.]": 8270}
{"Strand": "CGGACGTGCCCGGGCATGTCTCCTGACATGCCCGGGCACGTCCGACACTC", "median fluorescence [a.u.]": 15600}
{"Strand": "CGGACATGCCCGGGCGTGTCTCCTGACACGCCCGGGCATGTCCGACACTC (5mC at 15 29)", "median fluorescence [a.u.]": 15300}
{"Strand": "CCACACGTGGTCGCATGCCTTCCTAGGCATGCGACCACGTGTGGACACTC (5mC at 12 32)", "median fluorescence [a.u.]": 5700}
{"Strand": "CGGACATGCCCGGCGATGTCTCCTGACATCGCCGGGCATGTCCGACACTC (5mC at 14 30)", "median fluorescence [a.u.]": 9510}
{"Strand": "CGGACATGCCCGGGCTTGTCTCCTGACAAGCCCGGGCATGTCCGACACTC", "median fluorescence [a.u.]": 15300}
{"Strand": "CCACACGTGGTGGTATGCCTTCCTAGGCATACCACCACGTGTGGACACTC", "median fluorescence [a.u.]": 4400}
{"Strand": "CCACACGTGGTGGCCTGCCTTCCTAGGCAGGCCACCACGTGTGGACACTC (5mC at 15)", "median fluorescence [a.u.]": 3510}
{"Strand": "CGGACATGCCCTGGCATGTCTCCTGACATGCCAGGGCATGTCCGACACTC", "median fluorescence [a.u.]": 14400}
{"Strand": "CCACACGTGATGGCATGCCTTCCTAGGCATGCCATCACGTGTGGACACTC", "median fluorescence [a.u.]": 7180}
{"Strand": "CCACACGCGGTGGCATGCCTTCCTAGGCATGCCACCGCGTGTGGACACTC (5mC at 8 36)", "median fluorescence [a.u.]": 6750}
{"Strand": "CCACACGTGGGGGCATGCCTTCCTAGGCATGCCCCCACGTGTGGACACTC (5mC at 34)", "median fluorescence [a.u.]": 9140}
{"Strand": "CCACACGTGCGGGCATGCCTTCCTAGGCATGCCCGCACGTGTGGACACTC (5mC at 10)", "median fluorescence [a.u.]": 11800}
{"Strand": "CCACACGTGGTGGCATGCCTTCCTAGGCATGCCACCACGTGTGGACACTC (5mC at 6 38)", "median fluorescence [a.u.]": 7300}
{"Strand": "CCACACGTGGTGGCATGCCTTCCTAGGCATGCCACCACGTGTGGACACTC (5mC at 35)", "median fluorescence [a.u.]": 7630}
{"data": "Series 3", "target": "Histone acetyltransferase KAT6A, winged helix 2, GST fusion (KAT6A, Homo sapiens, UniProt Q92794, residues 85-181)", "technique": "protein binding microarray", "form": "double-stranded DNA, one strand shown", "medium": "in vitro", "concentration": "not given", "notes": "8-mer, flanks averaged, mean of 2 arrays, mostly near background", "relative to": "not given", "direction": "higher = stronger binding", "Residues (chain)": "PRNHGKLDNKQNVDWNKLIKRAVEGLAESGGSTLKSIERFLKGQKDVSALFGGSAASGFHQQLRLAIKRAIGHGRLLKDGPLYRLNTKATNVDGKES"}
{"Strand": "TAGGGCGA", "E-score": 0.00551}
{"Strand": "CTTGGTCC", "E-score": 0.007}
{"Strand": "CGACGAAC", "E-score": 0.0416}
{"Strand": "GGCGTTAC", "E-score": 0.0453}
{"Strand": "GGCCTAAC", "E-score": -0.00082}
{"Strand": "CCAGGAGC", "E-score": 0.0447}
{"Strand": "AGGTCAAG", "E-score": -0.0214}
{"Strand": "CGGTATAA", "E-score": 0.00705}
{"Strand": "CGCGGTAG", "E-score": 0.133}
{"Strand": "CGTCCGCA", "E-score": 0.0355}
{"Strand": "CTCCTACC", "E-score": -0.0169}
{"Strand": "TAACGGAA", "E-score": -0.063}
{"Strand": "AAGCGCCC", "E-score": 0.0482}
{"Strand": "AAAGAGCC", "E-score": -0.163}
{"Strand": "CCCAGCGG", "E-score": 0.155}
{"Strand": "CTTGTGAA", "E-score": 0.0674}
{"Strand": "GCTCAACC", "E-score": 0.0164}
{"Strand": "ACACACCC", "E-score": 0.0184}
{"Strand": "AAAATTTC", "E-score": 0.0901}
{"Strand": "GGCCGAAA", "E-score": 0.256}
{"Strand": "AATTATGT", "E-score": -0.0835}
{"Strand": "ACGCATCC", "E-score": 0.0192}
{"Strand": "AAGTACCT", "E-score": -0.135}
{"Strand": "ACCGTAAT", "E-score": -0.15}
{"data": "Series 4", "target": "CCNF, cyclin fold, Cln2 fusion (human)", "technique": "yeast growth competition, sequencing", "medium": "yeast", "notes": "strong parent motif", "relative to": "not given", "direction": "higher = stronger binding", "starting sequence": "CABLES2 docking peptide (human); ICAKRSLCAAFSV"}
{"Substitution": "ICAKRSLCAAASV [F11A]", "normalised enrichment score": 0.622}
{"Substitution": "ICAKRSLCAAFAV [S12A]", "normalised enrichment score": 3.08}
{"Substitution": "IAAKRSLCAAFSV [C2A]", "normalised enrichment score": 2.03}
{"Substitution": "ICAKASLCAAFSV [R5A]", "normalised enrichment score": 0.924}
{"Substitution": "ICAKRSACAAFSV [L7A]", "normalised enrichment score": 0.252}
{"note": "For quick reference, copied from above (series 3):"}
{"Strand": "CCCAGCGG", "E-score": 0.155}
{"Strand": "AAAGAGCC", "E-score": -0.163}
{"Strand": "AAGTACCT", "E-score": -0.135}
{"Strand": "CTTGGTCC", "E-score": 0.007}
{"Strand": "AGGTCAAG", "E-score": -0.0214}
{"Strand": "CGACGAAC", "E-score": 0.0416}
